Assay results gathered from unrelated publications.
Lines come from different studies, so protocols differ.
Read-out: DPPH scavenging

SMILES | assay | setting | IC50
CS(=O)(=O)c1nc2nc(-c3ccccc3)cc(-c3ccc4ccccc4n3)c2c(=O)[nH]1 | absorbance | 30 min | 178 µM
O=C1NC2(CCCCC2)c2[nH]c(=S)nc(-c3ccccc3)c21 |  |  | 223 µg/mL
CC1(C)C2CC[C@@]1(C)C(=O)/C2=C/c1ccsc1 |  | 15 min | 463 µM
NC1=NC(=S)NC12CCCCC2 |  |  | 263 µg/mL
Fc1ccc2[nH]c(-c3ccccc3OCc3ccccc3)nc2c1 | absorbance |  | 1.56 µM
c1ccc(-c2cc(-c3ccc4ccccc4n3)c3c(N4CCNCC4)nc(N4CCNCC4)nc3n2)cc1 | absorbance | 30 min | 147 µM
CC1(C)C2CC[C@@]1(C)C(=O)/C2=C/c1cc2ccccc2o1 |  | 15 min | 516 µM
O=C1O[C@H]([C@@H](O)CO)C(O)=C1O | absorbance |  | 0.73 µM
O=C(O)c1ccccc1Nc1nc(Nc2ccccc2C(=O)O)c2c(-c3ccc4ccccc4n3)cc(-c3ccccc3)nc2n1 | absorbance | 30 min | 164 µM
CC1(C)C2CC[C@]1(C)C(=O)/C2=C/c1ccco1 |  | 15 min | 430 µM
C[C@@H]1O[C@@H](OC[C@H]2O[C@@H](Oc3c(-c4ccc(O)c(O)c4)oc4cc(O)cc(O)c4c3=O)[C@H](O)[C@@H](O)[C@@H]2O)[C@H](O)[C@H](O)[C@H]1O | absorbance | 30 min | 20.6 µM
O=C1O[C@H]([C@@H](O)CO)C(O)=C1O |  |  | 31.3 µM
CC1(C)C2CC[C@@]1(C)C(=O)/C2=C/c1cccs1 |  | 15 min | 488 µM
Cc1ccc(C(=O)N(C(=O)c2ccc(C)cc2)C(=S)N2N=C(c3ccc(Cl)cc3)CC2c2ccc(Cl)cc2)cc1 (centres unmarked) | absorbance |  | 112 µM
c1ccc(-c2cc(-c3ccc4ccccc4n3)c3c(N4CCOCC4)nc(N4CCOCC4)nc3n2)cc1 | absorbance | 30 min | 149 µM
Cc1ccc(C(=O)N(C(=O)c2ccc(C)cc2)C(=S)N2N=C(c3ccc(Br)cc3)CC2c2cccc(F)c2)cc1 (centres unmarked) | absorbance |  | 104 µM
O=c1c2c(-c3ccc4ccccc4n3)cc(-c3ccccc3)nc2nc2n(-c3ccccc3)nc(-c3ccccc3)n12 | absorbance | 30 min | 142 µM
O=C1O[C@H]([C@@H](O)CO)C(O)=C1O | absorbance | dark | 82 µM
Cc1ccc(C(=O)N(C(=O)c2ccc(C)cc2)C(=S)N2N=C(c3ccc(C)cc3)CC2c2ccc(F)cc2)cc1 (centres unmarked) | absorbance |  | 105 µM
CC12CCC(CC1=O)C2(C)C (centres unmarked) |  | 15 min | > 2630 µM
Cc1ccc(C(=O)N(C(=O)c2ccc(C)cc2)C(=S)N2N=C(c3ccc(Br)cc3)CC2c2ccc(F)cc2)cc1 (centres unmarked) | absorbance |  | 106 µM
CC1(C)C2CC[C@@]1(C)C(=O)/C2=C/c1ccoc1 |  | 15 min | 606 µM
NNc1nc(NN)c2c(-c3ccc4ccccc4n3)cc(-c3ccccc3)nc2n1 | absorbance | 30 min | 168 µM
Cc1cc2nc(-c3ccc(OCc4ccccc4)cc3)[nH]c2cc1C | absorbance |  | 1.58 µM
COc1ccc(Nc2nc(Nc3ccc(OC)cc3)c3c(-c4ccc5ccccc5n4)cc(-c4ccccc4)nc3n2)cc1 | absorbance | 30 min | 158 µM
COc1cc(-c2nc3cc(Cl)ccc3[nH]2)ccc1OCc1ccccc1 | absorbance |  | 1.66 µM

A few entries again:
SMILES | assay | setting | IC50
O=C1O[C@H]([C@@H](O)CO)C(O)=C1O |  |  | 31.3 µM
CC1(C)C2CC[C@@]1(C)C(=O)/C2=C/c1cccs1 |  | 15 min | 488 µM
Cc1ccc(C(=O)N(C(=O)c2ccc(C)cc2)C(=S)N2N=C(c3ccc(Cl)cc3)CC2c2ccc(Cl)cc2)cc1 (centres unmarked) | absorbance |  | 112 µM
c1ccc(-c2cc(-c3ccc4ccccc4n3)c3c(N4CCOCC4)nc(N4CCOCC4)nc3n2)cc1 | absorbance | 30 min | 149 µM
